Measurements gathered from unrelated publications.
± marks the error that the study gave.

Structure (SMILES) | assay | test system | setting | half-life
CC[C@H](C)[C@H](NC(=O)[C@H](CC(N)=O)NC(=O)[C@@H]1CCCN1C(=O)[C@H](CO)NC(=O)[C@H](CC(N)=O)NC(=O)[C@@H](N)CCC(N)=O)C(=O)N[C@@H](Cc1ccccc1)C(=O)NCC(=O)N[C@@H](CCC(N)=O)C(=O)N[C@@H](Cc1c[nH]c2ccccc12)C(=O)N[C@@H](CCSC)C(=O)O |  | PBS with chymotrypsin | 0.28 mM, pH 7.2, 37 °C, added: chymotrypsin 50 nM | 120 min
Cc1ccc2nc(C(F)(F)F)c(C(=O)NCc3cccc(Cl)c3)n2c1 |  | human liver microsomes |  | < 3 min
C#Cc1c(F)ccc2cc(O)cc(-c3ncc4c(N5CC6CCC(C5)N6C(=O)/C(C)=C(/C)C(=O)OCCCC)nc(OC[C@@]56CCCN5C[C@H](F)C6)nc4c3F)c12 | refers to: prodrug disappearance | mouse whole blood | 60 min | stable
COCn1cc(-c2cc(-c3cnn(C(F)F)c3)cc([C@@H](C)NC(=O)c3cc(OCCN(C)C)ccc3C)c2)cn1 |  | mouse liver microsomes |  | 136 min
CC(=O)N[C@@H](Cc1ccc(O)cc1)C(=O)N[C@@H](CC(=O)O)C(=O)NCCC(=O)N[C@@H](Cc1ccccc1)C(=O)N[C@@H](Cc1ccc(O)cc1)C(=O)NCCC(=O)N[C@@H](Cc1ccc(O)cc1)C(=O)N[C@H](C(=O)N[C@H](C(=O)N[C@@H](Cc1ccccc1)C(=O)N[C@@H](Cc1c[nH]cn1)C(=O)N[C@H](C(=O)N[C@@H](C)C(=O)N[C@H](C(N)=O)[C@@H](C)O)C(C)C)[C@@H](C)O)C(C)C | LC-MS | human serum | 10 µM, 37 °C | 31.8 min
O=C1CC2(C1)C(=O)[O][Pt]1([Cl])([O]C(=O)C(F)(F)F)([NH][C@@H]3CCCC[C@H]3[NH]1)[O]C2=O | HPLC | MeOH/PBS 1:9 v/v | pH 7.4, 37 °C, PBS 7.87 mM | 50 to 60 min
[CH3][Ti+2][O]C(=O)c1ccc([S][Au][PH](c2ccccc2)(c2ccccc2)[c-]2cccc2)cc1.[Fe+2].c1cc[cH-]c1.c1cc[cH-]c1.c1cc[cH-]c1 | NMR | DMSO-d6 |  | 1920 min
CC(C)[C@H](N)C(=O)OCOC(=O)c1ccccc1.O=C(O)C(F)(F)F |  | isotonic buffer | pH 6.0, 37 °C | 3.5 min
CCn1ccc(-c2cc(-c3cnn(C)c3)cc([C@@H](C)NC(=O)c3cc(OCCN(C)C)ccc3C)c2)n1 |  | mouse liver microsomes |  | 82.4 min
Nc1nc2c(ncn2COCCOC(=O)[C@@H](N)CO)c(=O)[nH]1 | substrate | rabbit cornea homogenate | 0.133 mM, pH 7.4, 34 °C | 552 ± 36 min
CSCC[C@H](NC(=O)CNC(=O)CNC(=O)[C@H](CO)NC(=O)[C@H](CC(C)C)NC(=O)[C@@H]1CCCN1C(=O)[C@H](CO)NC(=O)[C@H](CC(N)=O)NC(=O)[C@H](CC(C)C)NC(=O)[C@H](C)NC(=O)[C@@H](NC(=O)[C@H](CC(C)C)NC(=O)[C@H](Cc1c[nH]cn1)NC(=O)[C@H](CC(C)C)NC(=O)[C@@H](NC(=O)[C@@H]1CCCN1C(=O)[C@H](CCC(N)=O)NC(=O)[C@H](Cc1ccccc1)NC(=O)[C@H](CC(=O)O)NC(=O)[C@H](CCCNC(=N)N)NC(=O)[C@H](Cc1c[nH]cn1)NC(=O)[C@H](CO)NC(=O)[C@H](Cc1c[nH]cn1)NC(=O)[C@H](CCSC)NC(=O)[C@H](CC(=O)O)NC(=O)CNC(=O)[C@H](CCCNC(=N)N)NC(=O)[C@H](CC(=O)O)NC(=O)CNC(=O)[C@@H](N)CCCNC(=N)N)C(C)C)C(C)C)C(N)=O | metabolic stability | SD rat liver homogenate | 20 µg/mL, 37 °C | 2.07 ± 0.022 min
CC(=O)N[C@@H](Cc1ccc(O)cc1)C(=O)N[C@@H](CCCNC(=N)N)C(=O)N[C@@H](Cc1ccccc1)C(=O)N[C@@H](C)C(=O)N[C@@H](CCCNC(=N)N)C(=O)N[C@@H](CC(N)=O)C(=O)N[C@@H](C)C(=O)N[C@H](C(=O)N[C@@H](Cc1ccccc1)C(=O)N[C@@H](C)C(=O)N[C@@H](Cc1ccccc1)C(=O)N[C@@H](Cc1ccc(O)cc1)C(=O)N[C@@H](C)C(=O)N[C@H](C(=O)N[C@@H](CC(=O)O)C(N)=O)[C@@H](C)O)C(C)C | LC-MS | human serum | 10 µM, 37 °C | < 10 min
CC[C@H](C)[C@@H]1NC(=O)[C@H](Cc2ccc(O)cc2)NC(=O)[C@@H](N)CSCSC[C@@H](C(=O)N2CCC[C@H]2C(=O)N[C@@H](CC(C)C)C(=O)NCC(N)=O)NC(=O)[C@H](CC(N)=O)NC(=O)[C@H](CCC(N)=O)NC1=O |  | phosphate buffer | 0.1 mg/mL, pH 4.5, 40 °C | 192000 ± 10100 min
Cc1ccc2nc(C)c(C(=O)NCc3ccc(C(F)(F)F)cc3)n2c1 |  | human liver microsomes | 2 µM | 30 min
O=C(NC12CC3CC(CC(C3)C1)C2)c1cc2cc(Cl)ccc2[nH]1 |  | human liver microsomes |  | > 30 min
CC(COC(=O)c1ccccc1)OC(=O)C(N)Cc1ccccc1 (mixture of isomers) |  | Caco-2 cell homogenate | pH 7.4, 37 °C, 500 µg/mL protein | < 5 min
CC[C@H](C)[C@@H]1NC(=O)[C@H](CCCNC(=N)N)NC(=O)[C@H](CC(=O)O)NC(=O)[C@H](CCSC)NC(=O)[C@H](CCCCN)NC(=O)[C@H](CCCNC(=N)N)NC(=O)CNC(=O)[C@H](Cc2ccccc2)NC(=O)[C@@H](NC(=O)CNC(=O)[C@H](CO)NC(=O)CNC(=O)[C@H](CCC(N)=O)NC(=O)[C@@H](NC(=O)[C@H](CCSC)NC(=O)[C@H](CCCCN)NC(=O)[C@@H]2CCCN2C(=O)[C@@H](N)CO)C(C)C)CSSC[C@@H](C(=O)N[C@@H](CCCCN)C(=O)N[C@H](C(=O)N[C@@H](CC(C)C)C(=O)N[C@@H](CCCN=C(N)N)C(=O)N[C@@H](CCCN=C(N)N)C(=O)N[C@@H](Cc2cnc[nH]2)C(=O)O)C(C)C)NC(=O)CNC(=O)[C@H](CC(C)C)NC(=O)CNC(=O)[C@H](CO)NC(=O)[C@H](CO)NC(=O)[C@H](CO)NC(=O)[C@H](CO)NC1=O |  | human kidney membranes | 1 µM, pH 7.5, 37 °C | 4.2 min
CCCCCCCC(=O)OC[C@H](NC(=O)[C@H](CO)NC(=O)CN)C(=O)N[C@@H](Cc1ccccc1)C(=O)N[C@@H](CC(C)C)C(=O)N[C@@H](CO)C(=O)N1CCC[C@H]1C(=O)N[C@@H](CCC(=O)O)C(=O)N[C@@H](Cc1cnc[nH]1)C(=O)N[C@@H](CCC(N)=O)C(=O)N[C@@H](CCCNC(=N)N)C(=O)N[C@H](C(=O)N[C@@H](CCC(N)=O)C(=O)N[C@@H](CCC(N)=O)C(=O)N[C@@H](CCCNC(=N)N)C(=O)N[C@@H](CCCCN)C(=O)N[C@@H](CCC(=O)O)C(=O)N[C@@H](CO)C(=O)N[C@@H](CCCCN)C(=O)N[C@@H](CCCCN)C(=O)N1CCC[C@H]1C(=O)N1CCC[C@H]1C(=O)N[C@@H](C)C(=O)N[C@@H](CCCCN)C(=O)N[C@@H](CC(C)C)C(=O)N[C@@H](CCC(N)=O)C(=O)N1CCC[C@H]1C(=O)N[C@@H](CCCNC(=N)N)C(=O)O)C(C)C | two-site ELISA | healthy men and women, plasma | continuous intravenous infusion, 5 µg/kg/h, 65 min infusion | 9 ± 2 min
N#Cc1ccc(NC(=O)c2cccnc2)cc1Cl |  | buffer | 5 µM, pH 10.0, 37 °C | 39.2 ± 8.7 min
N=C(N)NCCC[C@@H]1NC(=O)[C@H](CCCNC(=N)N)NC(=O)[C@H](CCCNC(=N)N)NC(=O)[C@H](CCCNC(=N)N)NC(=O)[C@H](Cc2c[nH]c3ccccc23)NC(=O)[C@H](CCCNC(=N)N)NC(=O)[C@H](CCCNC(=N)N)NC(=O)[C@@H](N)CCCn2cc(nn2)C[C@@H](C(N)=O)NC1=O | trypsin degradation, HPLC | PBS | pH 7.4, 37 °C, added: trypsin 0.1 ng/mL | 20 min
CC(COC(=O)c1ccccc1)OC(=O)C(N)C(C)C (mixture of isomers) |  | rat intestinal lumenal perfusate | 37 °C | > 120 min
CC(C)C(N)C(=O)OCC(=O)C1(O)CCC2C3CCC4=CC(=O)C=CC4(C)C3C(O)CC21C (centres unmarked) |  | SIRC cell homogenate | pH 7.4, 37 °C | 16.6 ± 0.2 min
COc1ccc2nc(C)cc(OCC(=O)Nc3cc(C)cc(C)c3)c2c1 |  | human liver microsomes |  | 17.5 min
CC[C@H](C)[C@H](NC(=O)[C@@H](NC(=O)[C@H](CC(N)=O)NC(=O)[C@H](CCC(N)=O)NC(=O)[C@@H]1CCCN1C(=O)[C@@H](NC(=O)[C@H](Cc1ccc(O)cc1)NC(=O)CNC(=O)[C@H](Cc1ccc(O)cc1)NC(=O)[C@H](Cc1c[nH]c2ccccc12)NC(=O)[C@H](Cc1c[nH]cn1)NC(=O)[C@H](Cc1ccc(O)cc1)NC(=O)CCOCCOCCOCCOCCOCCOCCC(=O)NCCCN(CCCNC(=O)CCOCCOCCOCCOCCOCCOCCC(=O)N[C@@H](Cc1ccc(O)cc1)C(=O)N[C@@H](Cc1c[nH]cn1)C(=O)N[C@@H](Cc1c[nH]c2ccccc12)C(=O)N[C@@H](Cc1ccc(O)cc1)C(=O)NCC(=O)N[C@@H](Cc1ccc(O)cc1)C(=O)N[C@H](C(=O)N1CCC[C@H]1C(=O)N[C@@H](CCC(N)=O)C(=O)N[C@@H](CC(N)=O)C(=O)N[C@H](C(=O)N[C@H](C(=O)O)[C@@H](C)CC)C(C)C)[C@@H](C)O)CC(=O)NCCOCCOCCOCCOCCC(=O)N[C@@H](CCCCNC(=O)CC[C@H](C(=O)O)N1CCN(CC(=O)O)CCN(CC(=O)O)CC1)C(N)=O)[C@@H](C)O)C(C)C)C(=O)O [gallium-68 labelled] | radio-HPLC | human serum | 37 °C | 84 min
CC[C@H](C)[C@@H]1NC(=O)[C@H](Cc2ccc(O)cc2)NC(=O)[C@@H](N)Cc2cn(nn2)CCCC[C@@H](C(=O)N2CCC[C@H]2C(=O)N[C@@H](CC(C)C)C(=O)NCC(N)=O)NC(=O)[C@H](CC(N)=O)NC(=O)[C@H](CCC(N)=O)NC1=O | RP-HPLC-MS | human pregnancy serum | 37 °C | > 2880 min
CCCC[C@H](NC(=O)[C@H](Cc1ccccc1)NC(=O)CNC(=O)[C@@H](C)NC(=O)[C@@H](N)Cc1ccc(O)cc1)C(=O)N1CCC[C@H]1C(=O)N[C@@H](CC(C)C)C(=O)N[C@@H](CO[C@@H]1O[C@H](CO)[C@@H](O)[C@H](O)[C@H]1O)C(=O)N[C@@H](Cc1c[nH]c2ccccc12)C(=O)NCc1cc(C(F)(F)F)cc(C(F)(F)F)c1 |  | rat plasma | 50 µg/mL, 37 °C | > 360 min
C=CCc1ccc(OC(=O)COC(=O)Cn2cnc3c2c(=O)n(C)c(=O)n3C)c(OC)c1 |  | phosphate buffer | 75 µM, pH 7.4, 37 °C | 678 min
COc1ccc(CCNc2cc(-c3ccccc3)nc3ncnn23)cc1 |  | mouse liver microsomes |  | 7.3 min
NCCCC[C@H](NC(=O)[C@H](Cc1ccccc1)NC(=O)[C@@H](CCCN=C(N)N)NC(=O)[C@@H](N)Cc1ccc(O)cc1)C(N)=O | trypsin cleavage |  | 1 µM, pH 7.4, room temperature | ~720 min

Repeated from above:
Structure (SMILES) | assay | test system | setting | half-life
[CH3][Ti+2][O]C(=O)c1ccc([S][Au][PH](c2ccccc2)(c2ccccc2)[c-]2cccc2)cc1.[Fe+2].c1cc[cH-]c1.c1cc[cH-]c1.c1cc[cH-]c1 | NMR | DMSO-d6 |  | 1920 min
Cc1ccc2nc(C(F)(F)F)c(C(=O)NCc3cccc(Cl)c3)n2c1 |  | human liver microsomes |  | < 3 min
N#Cc1ccc(NC(=O)c2cccnc2)cc1Cl |  | buffer | 5 µM, pH 10.0, 37 °C | 39.2 ± 8.7 min
CC(=O)N[C@@H](Cc1ccc(O)cc1)C(=O)N[C@@H](CCCNC(=N)N)C(=O)N[C@@H](Cc1ccccc1)C(=O)N[C@@H](C)C(=O)N[C@@H](CCCNC(=N)N)C(=O)N[C@@H](CC(N)=O)C(=O)N[C@@H](C)C(=O)N[C@H](C(=O)N[C@@H](Cc1ccccc1)C(=O)N[C@@H](C)C(=O)N[C@@H](Cc1ccccc1)C(=O)N[C@@H](Cc1ccc(O)cc1)C(=O)N[C@@H](C)C(=O)N[C@H](C(=O)N[C@@H](CC(=O)O)C(N)=O)[C@@H](C)O)C(C)C | LC-MS | human serum | 10 µM, 37 °C | < 10 min
